Experimental data pooled from the literature.
“And” joins repeats or separate records; there may be more than shown.

Cc1c(Cc2cccc(OC(C)(C)C(=O)O)c2)c2ccc(C(=O)N[C@@H](C)c3cc(C(C)(C)C)ccc3F)cc2n1CC(C)C
half-life (metabolic stability; human, liver microsomes): 0.883 h

C=C(NC(=O)c1csc(-c2nc3c(cc2O)-c2nc(cs2)C(=O)NC(C(C)O)C(=O)NC(=C(C)OC)c2nc(cs2)C(=O)NC2c4nc(cs4)C(=O)NC(COC(=O)c4c5c6c(cccc6n4O)COC(=O)C(OC4CC(C)(O)C(N(C)C)C(C)O4)C2OC5)c2nc-3cs2)n1)C(N)=O (stereo not drawn)
half-life (female cynomolgus monkey, plasma; intravenous, 1 mg/kg, single dose, infusion): 3.69 h

COC1CN([C@H]2CC[C@H]([C@@]3(C)Oc4c(Cl)cc(C(=O)NCc5c(SC)cc(C)[nH]c5=O)c(C)c4O3)CC2)C1
half-life (female CB17 SCID mice, KARPAS-422 xenograft, plasma; 25 mg/kg, day 1): 1 h

CC[C@H](C)[C@H](NC(=O)[C@H](Cc1ccccc1)NC(=O)[C@H](CCC(=O)O)NC(=O)[C@H](CCCCN)NC(=O)[C@H](C)NC(=O)[C@H](C)NC(=O)[C@H](CCC(N)=O)NC(=O)CNC(=O)[C@H](CCC(=O)O)NC(=O)[C@H](CC(C)C)NC(=O)[C@H](Cc1ccc(O)cc1)NC(=O)[C@H](CO)NC(=O)[C@H](CO)NC(=O)[C@@H](NC(=O)[C@H](CC(=O)O)NC(=O)[C@H](CO)NC(=O)[C@@H](NC(=O)[C@H](Cc1ccccc1)NC(=O)[C@@H](NC(=O)CNC(=O)[C@H](CCC(=O)O)NC(=O)[C@H](C)NC(=O)[C@@H](N)Cc1c[nH]cn1)[C@@H](C)O)[C@@H](C)O)C(C)C)C(=O)N[C@@H](C)C(=O)N[C@@H](Cc1c[nH]c2ccccc12)C(=O)N[C@@H](CC(C)C)C(=O)N[C@H](C(=O)N[C@@H](CCCNC(=N)N)C(=O)NCC(=O)N[C@@H](CCCNC(=N)N)C(=O)NCC(=O)O)C(C)C
half-life (male ICR mice, plasma; intravenous bolus, 1 mg/kg): 0.07 h and 0.09 h

CN(C(=O)c1ccnc(N2Cc3cn(Cc4ccc(F)cc4)nc3C2)n1)C1CCCCC1
half-life (metabolic stability; human, liver microsomes): 0.133 h

C/C(N)=N/C(=N\S(=O)(=O)c1ccc(C(F)(F)F)cc1)N1C[C@H](c2ccccc2)C(c2ccc(Cl)cc2)=N1
half-life (male C57BL/6 mouse, heart; intravenous, 10 mg/kg): 2.8 h

CN(C)C(=O)c1cccc(N2Cc3cn(Cc4ccc(F)c(F)c4)nc3C2)c1
half-life (metabolic stability; human, liver microsomes): 1.3 h

Cc1c(Cc2cc(F)cc(OC(C)(C)C(=O)O)c2)c2ccc(C(=O)N[C@@H](C)c3ccc(C(C)(C)C)cc3)cc2n1CC1CCC1
half-life (metabolic stability; human, liver microsomes): > 1 h

CN(C)C(=O)c1cccc(N2Cc3cn(Cc4ccc(F)cc4)nc3C2)c1
half-life (metabolic stability; human, liver microsomes): 1.6 h

CC(C)Cn1cc(Cc2cccc(OC(C)(C)C(=O)O)c2)c2ccc(C(=O)N[C@@H](C)c3cc(F)cc(C(C)(C)C)c3)cc21
half-life (metabolic stability; human, liver microsomes): > 1 h

CN(C)C(=O)c1cccc(N2Cc3cn(Cc4ccc(C#N)cc4)nc3C2)c1
half-life (metabolic stability; human, liver microsomes): 1.97 h

Cc1c(Cc2cccc(OC(C)(C)C(=O)O)c2)c2ccc(C(=O)NCc3cccc(C(C)(C)C)c3)cc2n1CC1CCC1
half-life (metabolic stability; human, liver microsomes): 0.367 h

A few entries again:
CN(C)C(=O)c1cccc(N2Cc3cn(Cc4ccc(F)cc4)nc3C2)c1
half-life (metabolic stability; human, liver microsomes): 1.6 h

Cc1c(Cc2cccc(OC(C)(C)C(=O)O)c2)c2ccc(C(=O)NCc3cccc(C(C)(C)C)c3)cc2n1CC1CCC1
half-life (metabolic stability; human, liver microsomes): 0.367 h
